Results from different studies.
Numbered parts are unrelated; each lists some results of a single study.
UniProt P57058, sequence (whole entry, looked up): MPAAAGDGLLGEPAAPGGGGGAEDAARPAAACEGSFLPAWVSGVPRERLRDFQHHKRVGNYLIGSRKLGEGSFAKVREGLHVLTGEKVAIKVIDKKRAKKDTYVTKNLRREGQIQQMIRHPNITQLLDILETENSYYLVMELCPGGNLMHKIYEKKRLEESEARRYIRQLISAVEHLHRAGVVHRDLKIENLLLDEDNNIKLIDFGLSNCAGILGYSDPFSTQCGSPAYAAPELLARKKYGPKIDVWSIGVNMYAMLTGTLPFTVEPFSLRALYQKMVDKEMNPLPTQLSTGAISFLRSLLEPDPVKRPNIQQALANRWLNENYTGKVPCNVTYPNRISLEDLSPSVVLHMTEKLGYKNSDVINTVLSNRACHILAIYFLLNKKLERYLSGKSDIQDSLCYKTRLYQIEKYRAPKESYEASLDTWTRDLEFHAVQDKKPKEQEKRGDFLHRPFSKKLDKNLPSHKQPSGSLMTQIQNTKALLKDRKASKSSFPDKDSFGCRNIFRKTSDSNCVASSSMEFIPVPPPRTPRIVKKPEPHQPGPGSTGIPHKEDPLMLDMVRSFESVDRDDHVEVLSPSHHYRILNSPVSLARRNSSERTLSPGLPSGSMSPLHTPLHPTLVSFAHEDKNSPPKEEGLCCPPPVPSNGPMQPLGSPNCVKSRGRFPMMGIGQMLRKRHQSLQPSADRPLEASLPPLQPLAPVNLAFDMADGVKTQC
UniProt Q8IY84, sequence (whole entry, looked up): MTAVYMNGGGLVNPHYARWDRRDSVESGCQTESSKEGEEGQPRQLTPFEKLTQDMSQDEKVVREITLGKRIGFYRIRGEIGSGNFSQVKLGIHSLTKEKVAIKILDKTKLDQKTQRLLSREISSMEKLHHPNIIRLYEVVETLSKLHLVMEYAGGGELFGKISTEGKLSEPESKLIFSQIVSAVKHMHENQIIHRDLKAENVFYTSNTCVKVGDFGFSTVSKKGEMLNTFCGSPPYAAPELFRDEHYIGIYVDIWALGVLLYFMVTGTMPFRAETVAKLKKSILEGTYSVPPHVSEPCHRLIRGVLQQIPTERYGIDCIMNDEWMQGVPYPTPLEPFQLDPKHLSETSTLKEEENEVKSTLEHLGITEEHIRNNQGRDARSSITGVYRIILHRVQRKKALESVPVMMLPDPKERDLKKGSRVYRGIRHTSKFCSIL
UniProt Q9NWZ3, sequence (whole entry, looked up): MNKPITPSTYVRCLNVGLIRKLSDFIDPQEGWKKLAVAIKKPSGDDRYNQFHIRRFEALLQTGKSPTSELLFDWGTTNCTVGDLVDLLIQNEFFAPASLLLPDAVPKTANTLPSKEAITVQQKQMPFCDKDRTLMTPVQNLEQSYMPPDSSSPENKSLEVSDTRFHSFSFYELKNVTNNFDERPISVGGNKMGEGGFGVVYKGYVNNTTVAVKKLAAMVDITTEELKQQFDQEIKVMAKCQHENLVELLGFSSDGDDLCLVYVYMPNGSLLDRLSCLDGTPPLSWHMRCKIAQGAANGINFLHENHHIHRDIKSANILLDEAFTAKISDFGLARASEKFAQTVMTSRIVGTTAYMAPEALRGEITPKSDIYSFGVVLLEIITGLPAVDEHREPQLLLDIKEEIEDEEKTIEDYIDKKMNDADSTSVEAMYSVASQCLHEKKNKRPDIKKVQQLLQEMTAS
UniProt Q13164, sequence (whole entry, looked up): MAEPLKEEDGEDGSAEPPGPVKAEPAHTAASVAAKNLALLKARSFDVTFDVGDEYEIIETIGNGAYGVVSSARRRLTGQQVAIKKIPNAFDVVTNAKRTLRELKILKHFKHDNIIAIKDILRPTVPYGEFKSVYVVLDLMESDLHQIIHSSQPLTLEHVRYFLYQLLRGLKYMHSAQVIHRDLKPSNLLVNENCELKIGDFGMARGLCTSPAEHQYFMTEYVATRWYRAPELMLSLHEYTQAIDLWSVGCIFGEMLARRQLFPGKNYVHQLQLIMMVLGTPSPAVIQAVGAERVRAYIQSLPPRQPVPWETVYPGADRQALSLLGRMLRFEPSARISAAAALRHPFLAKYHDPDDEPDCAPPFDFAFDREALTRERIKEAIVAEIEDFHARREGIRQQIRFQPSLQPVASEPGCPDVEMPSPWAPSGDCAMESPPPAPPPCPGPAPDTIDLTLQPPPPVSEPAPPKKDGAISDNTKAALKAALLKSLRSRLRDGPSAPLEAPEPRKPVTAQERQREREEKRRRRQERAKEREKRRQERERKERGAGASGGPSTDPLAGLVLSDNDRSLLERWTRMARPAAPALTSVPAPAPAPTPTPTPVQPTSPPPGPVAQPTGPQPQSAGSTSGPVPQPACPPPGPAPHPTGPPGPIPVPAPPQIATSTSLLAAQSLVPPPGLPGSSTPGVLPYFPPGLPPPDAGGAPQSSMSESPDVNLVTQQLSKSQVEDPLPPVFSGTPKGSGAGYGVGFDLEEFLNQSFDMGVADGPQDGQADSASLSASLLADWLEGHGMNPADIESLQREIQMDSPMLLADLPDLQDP
UniProt P29320, sequence (whole entry, looked up): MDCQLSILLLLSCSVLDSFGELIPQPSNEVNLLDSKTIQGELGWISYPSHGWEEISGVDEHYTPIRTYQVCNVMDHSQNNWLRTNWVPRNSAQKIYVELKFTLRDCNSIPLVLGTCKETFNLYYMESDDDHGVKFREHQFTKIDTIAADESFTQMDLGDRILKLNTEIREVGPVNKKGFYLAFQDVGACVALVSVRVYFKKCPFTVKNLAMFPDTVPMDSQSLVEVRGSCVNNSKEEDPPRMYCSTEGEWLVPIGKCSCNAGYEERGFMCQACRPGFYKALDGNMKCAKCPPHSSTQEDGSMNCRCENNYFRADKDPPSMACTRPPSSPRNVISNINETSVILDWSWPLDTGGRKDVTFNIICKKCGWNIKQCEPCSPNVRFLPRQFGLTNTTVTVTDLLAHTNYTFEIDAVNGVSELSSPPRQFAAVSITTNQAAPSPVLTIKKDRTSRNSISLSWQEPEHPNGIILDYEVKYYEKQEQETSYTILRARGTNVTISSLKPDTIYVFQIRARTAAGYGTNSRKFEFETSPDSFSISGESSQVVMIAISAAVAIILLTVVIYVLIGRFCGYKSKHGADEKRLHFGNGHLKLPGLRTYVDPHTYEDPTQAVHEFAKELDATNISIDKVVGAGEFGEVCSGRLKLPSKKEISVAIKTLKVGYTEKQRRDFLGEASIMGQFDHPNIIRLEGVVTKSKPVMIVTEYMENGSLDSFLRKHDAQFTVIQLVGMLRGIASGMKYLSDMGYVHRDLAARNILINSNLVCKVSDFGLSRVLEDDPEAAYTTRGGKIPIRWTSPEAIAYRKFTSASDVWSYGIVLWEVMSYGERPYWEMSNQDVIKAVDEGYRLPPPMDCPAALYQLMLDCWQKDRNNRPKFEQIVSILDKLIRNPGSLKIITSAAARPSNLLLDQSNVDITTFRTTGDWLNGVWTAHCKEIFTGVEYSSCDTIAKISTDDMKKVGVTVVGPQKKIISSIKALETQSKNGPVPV
UniProt P49761, sequence (whole entry, looked up): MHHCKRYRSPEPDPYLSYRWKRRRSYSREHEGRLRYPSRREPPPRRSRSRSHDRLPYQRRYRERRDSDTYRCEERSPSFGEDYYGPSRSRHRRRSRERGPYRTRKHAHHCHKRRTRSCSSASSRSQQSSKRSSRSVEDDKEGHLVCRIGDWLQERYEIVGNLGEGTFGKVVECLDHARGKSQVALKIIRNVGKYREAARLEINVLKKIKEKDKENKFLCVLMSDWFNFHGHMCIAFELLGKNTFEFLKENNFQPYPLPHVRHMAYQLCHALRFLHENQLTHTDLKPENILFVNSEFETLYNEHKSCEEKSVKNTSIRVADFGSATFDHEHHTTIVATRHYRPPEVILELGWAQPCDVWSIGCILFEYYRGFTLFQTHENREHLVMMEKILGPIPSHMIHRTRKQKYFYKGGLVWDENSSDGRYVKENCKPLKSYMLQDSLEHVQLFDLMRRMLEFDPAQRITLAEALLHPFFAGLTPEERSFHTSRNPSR

Block 1
Organism: Sarcocystis neurona
Read-out: parasite growth
Tested at: 10 µM
Setting: secondary screen
SMILES	inhibition
Cc1[nH]cnc1CN1CCc2c(c3ccccc3n2C)C1=O	-53.9%
O=C1CN2Cc3c(ccc(Cl)c3Cl)N=C2N1	-21.4%
CCOC(=O)C1=C(C)NC(C)=C(C(=O)OCC)C1c1ccccc1/C=C/C(=O)OC(C)(C)C	-6.2%
Nc1ccc2cn[nH]c2c1	-41.6%
CCCCCCNC(=O)n1cc(F)c(=O)[nH]c1=O	64.7%

Block 2
Structure (SMILES): O=C(Nc1cccnn1)N1CC(C/C=C/c2cncc(Oc3ccc(C(F)(F)F)cn3)n2)C1
Read-out: cell-free assay
Method: competition with immobilised ligand
Tested at: 1 µM
target	remaining binding
Interleukin-1 receptor-associated kinase 4 (IRAK4, Homo sapiens, UniProt Q9NWZ3)	100%
Serine/threonine-protein kinase mTOR (MTOR, Homo sapiens, UniProt P42345)	100%
Serine/threonine-protein kinase NIM1 (NIM1K, Homo sapiens, UniProt Q8IY84)	76%
Hormonally up-regulated neu tumor-associated kinase (HUNK, Homo sapiens, UniProt P57058)	89%
Ephrin type-A receptor 3 (EPHA3, Homo sapiens, UniProt P29320)	95%
Dual specificity protein kinase CLK3 (CLK3, Homo sapiens, UniProt P49761)	100%
Mitogen-activated protein kinase 7 (MAPK7, Homo sapiens, UniProt Q13164)	100%
Non-receptor tyrosine-protein kinase TYK2, JH2 (TYK2, Homo sapiens, UniProt P29597)	79%

Block 3
Cell line: HaCaT
Tested at: 100 µM
Time: 36 h
Compound	viability [%]
Cc1c(-c2ccc(O)cc2)n(Cc2ccc(OCCN3CCCCCC3)cc2)c2ccc(O)cc12	8.59
CCCCC(C)(O)C/C=C/[C@H]1[C@H](O)CC(=O)[C@@H]1CCCCCCC(=O)OC (mixture of isomers)	94.6
CC(=O)Nc1c(I)c(NC(C)=O)c(I)c(C(=O)O)c1I	87.7
O=C(O)c1cccnc1	108
CC(=O)Oc1cc(C(F)(F)F)ccc1C(=O)O	90.1

Block 4
Target: Mitogen-activated protein kinase 13 (MAPK13, Homo sapiens, UniProt O15264)
Read-out: enzyme activity
Mode: inhibitor
Tested at: 0.5 µM
Reference: control
Target sequence (O15264 1-365): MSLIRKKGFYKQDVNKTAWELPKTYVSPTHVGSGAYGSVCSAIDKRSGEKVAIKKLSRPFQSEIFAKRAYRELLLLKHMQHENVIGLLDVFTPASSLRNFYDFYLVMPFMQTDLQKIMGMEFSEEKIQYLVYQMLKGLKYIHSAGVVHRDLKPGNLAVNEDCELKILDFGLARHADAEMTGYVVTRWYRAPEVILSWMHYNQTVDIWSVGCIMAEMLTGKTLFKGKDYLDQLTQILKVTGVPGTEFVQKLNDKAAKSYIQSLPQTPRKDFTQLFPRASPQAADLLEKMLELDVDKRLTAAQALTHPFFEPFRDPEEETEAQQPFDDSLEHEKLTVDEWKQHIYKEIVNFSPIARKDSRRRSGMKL
SMILES	remaining activity [%]
COc1ccc(OC)c2c(=S)c3ccccc3[nH]c12	103
CN(C)c1ccc(C=C2C(=O)Nc3ccccc32)cc1	97.1
NCCNc1ncc(C(N)=O)c(Nc2cccc(C(F)(F)F)c2)n1	103
C#Cc1cccc(Nc2ncnc3cc(OCCOC)c(OCCOC)cc23)c1	95
Cc1nc(-c2ccccc2)c(-c2ccncc2)o1	114
O=c1c2ccccc2[nH]c(=S)n1CCN1CCC(=C(c2ccc(F)cc2)c2ccc(F)cc2)CC1	106
O=C1NC(=O)C(c2cn(CCCO)c3ncccc23)=C1c1cnccn1	96.5
COc1cc2ncnc(Nc3ccc(F)c(Cl)c3)c2cc1OCCCN1CCOCC1	94.7
Cc1ccc(Nc2nccc(N(C)c3ccc4c(C)n(C)nc4c3)n2)cc1S(N)(=O)=O	94.6
Nc1ccc2ncnc(NCCc3ccc(Oc4ccccc4)cc3)c2c1	100
O=C(CCCc1ccc(-c2ccccc2F)cc1)Nc1ccc(O)cc1	103
COc1ccc(CNC(=O)Nc2ncc([N+](=O)[O-])s2)cc1	91.1
Nc1[nH]nc2nc3ccccc3nc12	101
COc1ccc(C(=O)Nc2sc3c(c2C(N)=O)CCCC3)cc1OC	109
CO[C@H]1C[C@@H]2CC[C@@H](C)[C@@](O)(O2)C(=O)C(=O)N2CCCC[C@H]2C(=O)O[C@H]([C@H](C)C[C@@H]2CC[C@@H](O)[C@H](OC)C2)CC(=O)[C@H](C)/C=C(\C)[C@@H](O)[C@@H](OC)C(=O)[C@H](C)C[C@H](C)/C=C/C=C/C=C/1C	121
